Experimental data pooled from the literature.
Protocols differ between the studies behind these lines. Values joined by “and” are separate records of one study, mostly repeats; a detail may differ. ± marks the error that the study gave.
Organism: HIV-1

Nc1ncnc2c1ncn2CCOCP(=O)(O)O  EC50 (giant cell formation; CEM, IIIB; 96 h): 7400 ± 1700 nM
Cc1cn([C@H]2C[C@H](N=[N+]=[N-])[C@@H](COC(=O)Cn3c(=O)ccn(CCCOc4ccc(Br)cc4)c3=O)O2)c(=O)[nH]c1=O  EC50 (viral replication, item: p24gag; MT4, Lai.04; 3 days): 1960 ± 780 nM
Cc1cc(C)cc(S(=O)(=O)c2c(C(=O)NCCCCNS(=O)(=O)c3ccccc3F)[nH]c3ccc(Cl)cc23)c1  EC50 (viral replication; MT-4, IIIB): 9.1 ± 2.5 nM
COc1ccc2nc(NCc3ccc(CNCCCNC4CCCCCC4)cc3)nc(NC3CCNCC3)c2c1  EC50 (viral replication, luciferase reporter; TZM-bl, IIIB): 42.6 ± 7 nM
COc1nc(Nc2ccc(C#N)c(OCC=C(C)C)c2)nc(OCCCCOc2nc(Nc3ccc(C#N)c(OCC=C(C)C)c3)nc(OC)n2)n1  EC50 (protection from viral cytopathicity, MTT; MT-2, IIIB): > 6000 nM
Cc1cc(C)cc(S(=O)(=O)c2c(C(=O)NCCNS(=O)(=O)c3cccs3)[nH]c3ccc(Cl)cc23)c1  EC50 (viral replication; MT-4, IIIB): 100 ± 27 nM
O=C(CNC(=O)c1ccccc1)N[C@@H](Cc1ccccc1)C(=O)N1CCC[C@H]1C(=O)Nc1ccccc1  EC50 (viral replication; TZM-GFP, NL4-3): > 20000 nM
Nc1nc2c(ncn2COCCOP(=O)(O)OP(=O)(O)OP(=O)(O)O)c(=O)[nH]1  EC50 (viral replication, item: p24 antigen; MT-4, LAI.04; cells preincubated with compound overnight): 58000 ± 2600 nM
O=C(O)c1cc(Br)cc(Br)c1-n1c(-c2ccccc2)nc2c(Br)cc(Br)cc2c1=O  EC50 (cytopathic effect; MT-4, IIIB; 5 days): > 125 µg/mL
CN1CCN(c2nc(NCc3ccc(CNCCCNC4CCCCC4)cc3)c3ncn(C)c3n2)CC1  EC50 (viral replication, luciferase reporter; TZM-bl, IIIB): 6.5 ± 0.2 nM
CN(C(=O)[C@H](Cc1ccccc1)NC(=O)CNC(=O)c1ccccc1)c1ccc(Cl)cc1  EC50 (viral replication; TZM-GFP, NL4-3): 880 ± 20 nM
Cc1ccc(S(=O)(=O)NCCNC(=O)c2[nH]c3ccc(Cl)cc3c2S(=O)(=O)c2cc(C)cc(C)c2)cc1  EC50 (viral replication; MT-4, IIIB): 45 ± 7 nM
Cc1cn([C@H]2C=C[C@@H](CO)O2)c(=O)[nH]c1=O  EC50 (viral replication, supernatant RT activity; human PBM cells, LAI; 6 days): 69 nM and 73 nM
Cc1cn([C@H]2C[C@H](N=[N+]=[N-])[C@@H](CO)O2)c(=O)[nH]c1=O  EC50 (viral replication; MT4, NL4-3): 100 nM
Cc1cc(C)cc(S(=O)(=O)c2c(C(=O)NCCCCCNS(=O)(=O)c3ccccc3)[nH]c3ccc(Cl)cc23)c1  EC50 (viral replication; MT-4, IIIB): 15 ± 7.7 nM
COc1cc(NC(C)CCCNC(=O)c2cc(Br)ccc2N)c2ncccc2c1 (stereo not shown)  EC50 (cytopathic effect; MT4, NL4.3; 5 days): 14100 ± 600 nM
O=C(O)c1cc(Br)ccc1-n1c(-c2ccccc2)nc2ccccc2c1=O  EC50 (cytopathic effect; MT-4, IIIB; 5 days): > 88.2 µg/mL
Cc1cc(C)cc(S(=O)(=O)c2c(C(=O)NCCCCCNS(=O)(=O)c3ccc([N+](=O)[O-])cc3)[nH]c3ccc(Cl)cc23)c1  EC50 (viral replication; MT-4, IIIB): 27 ± 7.9 nM
Cc1cc(O)c(=O)c(O)c2c1C[C@@H](C(C)(O)CNCc1ccccc1F)CC2 (mixture of isomers)  EC50 (cytopathic effect; CEM-SS, RF): > 50000 nM

Excerpt of the above:
CN(C(=O)[C@H](Cc1ccccc1)NC(=O)CNC(=O)c1ccccc1)c1ccc(Cl)cc1  EC50 (viral replication; TZM-GFP, NL4-3): 880 ± 20 nM
